Assay results collected from several papers.
A part holds a random share of what one study measured. Substitutions count along the parent as printed.

Sample 1
Target: Fragile X messenger ribonucleoprotein 1, C-terminal low-complexity region (Fmr1, Mus musculus, UniProt P35922)
Method: RNA Bind-n-Seq
Form: RNA
Matrix: in vitro
Tested at: 200 nM
Notes: whole 134-nt RNA, ends assumed
With: 150 mM KCl
Relative to: input library
Direction: higher = stronger binding
Constant ends, left off below: GGGAGUUCUACAGUCCGACGAUC … UGGAAUUCUCGGGUGUCAAGG
| Strand | log2 enrichment |
| --- | --- |
| CAAGUCCUGUGCUACACAUCGUAUGUACCGAAUCGGGUUUGGGUUUGGUUUGGGGAAAGUAUUAUGUUACGCCGUUCGGAUCUGCACUUC | 0.47 |
| UUCCCUCUGUUUUAUUUUUCCCCCGUGUGUCCCUACUAUGGUCAGAAAGCCUGUUGUGUCCACCAUCUCCAAAGGAGGUUACCUGCAGGG | 0.0113 |
| UCAAGUCCUGUGCUACACAUCGUAUGUACCGAAUCGGAAAGGUGGUUUUUUUGGAAAGUAUUAUGUUACGCCGUUCGGAUCUGCACUUCC | -0.664 |
| UGGCCCUGGUGGCAUGCGGGGAGGAAGAGGUGGCCUCAUGGAUCGUGGUGGUCCCGGUGGAAUGUUCAGAGGUGGCCGUGGUGGGGACAG | 0.081 |
| AAGUCCUGUGCUACACAUCGUAUGUACCGAAUCGGAAAGGAAAAAAAGGUUUUUGGAAAGUAUUAUGUUACGCCGUUCGGAUCUGCACUU | -1.25 |
| UCCUGUGCUACACAUCGUAUGUACCGAAUCGGGGUUUUUGGGGAGGGGAAAAAAAGGGGAAAGUAUUAUGUUACGCCGUUCGGAUCUGCA | 0.454 |
| CUCAAGUCCUGUGCUACACAUCGUAUGUACCGAAUCGGAAAAAGGAGGUUUGGAAAGUAUUAUGUUACGCCGUUCGGAUCUGCACUUCCA | -0.475 |
| AGUCCUGUGCUACACAUCGUAUGUACCGAAUCGGAAAAAGGGGAAAAAGGGAAAAAGGAAAGUAUUAUGUUACGCCGUUCGGAUCUGCAC | -0.441 |
| ACCAUGCAGGUGGGCAUCUUUGGGAAGUGGGGCAAGGGGGGGAUAGGGAGGGGGGUAUCACUUUGGGAACAGGUGGUCCCAGGUCGUUUC | 0.995 |
| GCAGGAAGUAAAAACAAAUGGAAAUGCUUUGGAUAGUGGCAGGGGUGGGGGUUGCUAAGGAAAGGGUGGGAUGGGAGUGGGUAAAGAGUU | 0.375 |

Sample 2
Target: RING finger protein unkempt homolog, zinc fingers 1-6, GST-SBP tag (UNK, Homo sapiens, UniProt Q9C0B0, residues 30-357)
Method: RNA Bind-n-Seq
Form: RNA
Matrix: in vitro
Tested at: not given
Notes: RNA with constant flanks, human and mouse sites, ends assumed
Relative to: input RNA pool
Direction: higher = stronger binding
Constant ends, left off below: GGGAGUUCUACAGUCCGACGAUC … CAACAGAGGAUUGAGCAUCA
Residues (chain): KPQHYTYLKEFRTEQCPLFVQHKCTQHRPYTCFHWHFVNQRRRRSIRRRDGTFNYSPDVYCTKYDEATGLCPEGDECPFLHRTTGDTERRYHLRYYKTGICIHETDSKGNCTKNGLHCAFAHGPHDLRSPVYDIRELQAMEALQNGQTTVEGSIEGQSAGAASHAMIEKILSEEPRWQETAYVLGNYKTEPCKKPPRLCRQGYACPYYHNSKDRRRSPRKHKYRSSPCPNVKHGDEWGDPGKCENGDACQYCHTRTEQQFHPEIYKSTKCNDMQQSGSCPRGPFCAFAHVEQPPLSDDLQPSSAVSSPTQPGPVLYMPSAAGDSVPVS
| Strand | bound/input enrichment [ratio] |
| --- | --- |
| GGUUUUAUACACACCAGUUCCCCAGUAAAUGCAAAUUUAACAAGAAAAUCAGACAUGUCAUAUGUUCAAAAUGCUCAUGGCAAACAAUCAUUUUGCAUUCCUGCAAAUAAAAUUGUUUUA | 0.452 |
| GUAGCUAAGUUUCUUGAUGCUUCUGGAGCAAAACUUGAUUACCGUCGAUAUGCAGAAACACUCUUUGACAUUCUGGUGGCUGGUGGAAUGCUGGCCCCAGGUGGUACACUGGCAGAUGAC | 0.266 |
| CAAAAUUUAAGACCAUGAUGAAAUUUCAGUUUCAUUCAAAUGUUACCUAAAAUUUAUGGUGUCAGAAUAAAGGGAGAUCAUAGUGAGUUAAUUUGAUAUUCAUAUCCUGGAAGUAUACAU | 8.34 |
| CAUGAAACAUGGGAUGGUGGGUGGCAGGGAGGGAAGGCUAGACCAGCCAUCUUGUCUUUUCUCCCACCAGAAUGUGGACGAUGCAAUGACGGUGCUCCCGAAACUGGCCACAGGUCUGGA | 0.0565 |
| ACUAUUGUUAAAAUGAACUGUUGCUAUUGUGAGAUGGAUUUCCUUUCGAAUGGCACUACCUUAGGGACAUUCUAGUAUUGCUUCUAUUGUUUGGGCAUUGUGGAUAAUGUACAGAUUUAA | 0.372 |
| UGUCCAGGUUGCUACAAGAUUACUACAGUUUUCAGCCAUGCACAGACUGUGGUUCUUUGUGUGGGUUGUUCAACUGUGUUGUGCCAGCCCACAGGAGGAAAAGCCAGGCUCACAGAAGGC | 0.104 |
| CUGCACCCUUCCCAGCCUGUUCUGUACUGGGGACAGCAGUCUUCUCCCUGUCCUCCCAUGUCCUAUAUCCACCCCUCCCCUUGGAAGGUCCUCCCCACAGUGACACUGGACAGCCCUGGG | 0.203 |

Sample 3
Target: CCNE1, cyclin fold, Cln2 fusion (human)
Method: yeast growth competition, sequencing
Matrix: yeast
Notes: strong parent motif
Relative to: not given
Direction: higher = stronger binding
Starting sequence: PKN2 docking peptide (human); VSAVRKLDFSDTM; partner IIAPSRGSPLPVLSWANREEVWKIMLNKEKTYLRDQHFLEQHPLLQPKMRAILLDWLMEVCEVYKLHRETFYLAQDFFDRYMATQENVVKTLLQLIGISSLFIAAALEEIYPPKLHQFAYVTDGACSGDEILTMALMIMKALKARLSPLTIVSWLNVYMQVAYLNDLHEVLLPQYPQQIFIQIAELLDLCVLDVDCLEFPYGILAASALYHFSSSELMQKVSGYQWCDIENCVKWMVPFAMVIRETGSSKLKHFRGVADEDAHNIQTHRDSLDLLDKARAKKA
| Variant | normalised enrichment score |
| --- | --- |
| F9M | 1.15 |
| L7G | -0.105 |
| L7W | 0.00808 |
| D8K | 3.78 |
| L7R | -0.0735 |
| V4I | 4.7 |
| K6C | 4.03 |

Other studies, line by line
| Substance | target | test | system | setting | scale | endpoint | value |
| --- | --- | --- | --- | --- | --- | --- | --- |
| PhoQ, residues 284 288 289 292 302 303 SSCCRF | PhoP, residues 12 14 15 18 19 LQHIR (Escherichia coli, UniProt P23836) | Sort-seq, item: YFP reporter | E. coli | PhoQ-PhoP variant library, with: 10 µM Mg2+ | relative to: high Mg2+ state, higher = stronger signaling | fold induction | 12.3 |
